Assay results pooled from the literature.
Compare with care: the assays were run in different laboratories.
PIP4K2C: Phosphatidylinositol 5-phosphate 4-kinase type-2 gamma (PIP4K2C, Homo sapiens, UniProt Q8TBX8)
Chain of UniProt Q8TBX8 (whole entry, looked up): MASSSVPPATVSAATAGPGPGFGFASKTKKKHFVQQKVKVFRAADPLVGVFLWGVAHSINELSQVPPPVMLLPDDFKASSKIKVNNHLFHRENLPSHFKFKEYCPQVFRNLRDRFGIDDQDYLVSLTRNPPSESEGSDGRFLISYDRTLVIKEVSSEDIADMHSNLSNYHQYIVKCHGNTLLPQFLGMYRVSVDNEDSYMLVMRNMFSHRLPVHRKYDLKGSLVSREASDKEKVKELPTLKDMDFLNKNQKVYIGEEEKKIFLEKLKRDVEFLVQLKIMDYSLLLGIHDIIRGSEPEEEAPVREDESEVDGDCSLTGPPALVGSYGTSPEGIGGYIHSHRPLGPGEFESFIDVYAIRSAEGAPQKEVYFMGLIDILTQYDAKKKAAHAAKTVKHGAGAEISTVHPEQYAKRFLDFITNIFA
Chain of UniProt O60674 (whole entry, looked up): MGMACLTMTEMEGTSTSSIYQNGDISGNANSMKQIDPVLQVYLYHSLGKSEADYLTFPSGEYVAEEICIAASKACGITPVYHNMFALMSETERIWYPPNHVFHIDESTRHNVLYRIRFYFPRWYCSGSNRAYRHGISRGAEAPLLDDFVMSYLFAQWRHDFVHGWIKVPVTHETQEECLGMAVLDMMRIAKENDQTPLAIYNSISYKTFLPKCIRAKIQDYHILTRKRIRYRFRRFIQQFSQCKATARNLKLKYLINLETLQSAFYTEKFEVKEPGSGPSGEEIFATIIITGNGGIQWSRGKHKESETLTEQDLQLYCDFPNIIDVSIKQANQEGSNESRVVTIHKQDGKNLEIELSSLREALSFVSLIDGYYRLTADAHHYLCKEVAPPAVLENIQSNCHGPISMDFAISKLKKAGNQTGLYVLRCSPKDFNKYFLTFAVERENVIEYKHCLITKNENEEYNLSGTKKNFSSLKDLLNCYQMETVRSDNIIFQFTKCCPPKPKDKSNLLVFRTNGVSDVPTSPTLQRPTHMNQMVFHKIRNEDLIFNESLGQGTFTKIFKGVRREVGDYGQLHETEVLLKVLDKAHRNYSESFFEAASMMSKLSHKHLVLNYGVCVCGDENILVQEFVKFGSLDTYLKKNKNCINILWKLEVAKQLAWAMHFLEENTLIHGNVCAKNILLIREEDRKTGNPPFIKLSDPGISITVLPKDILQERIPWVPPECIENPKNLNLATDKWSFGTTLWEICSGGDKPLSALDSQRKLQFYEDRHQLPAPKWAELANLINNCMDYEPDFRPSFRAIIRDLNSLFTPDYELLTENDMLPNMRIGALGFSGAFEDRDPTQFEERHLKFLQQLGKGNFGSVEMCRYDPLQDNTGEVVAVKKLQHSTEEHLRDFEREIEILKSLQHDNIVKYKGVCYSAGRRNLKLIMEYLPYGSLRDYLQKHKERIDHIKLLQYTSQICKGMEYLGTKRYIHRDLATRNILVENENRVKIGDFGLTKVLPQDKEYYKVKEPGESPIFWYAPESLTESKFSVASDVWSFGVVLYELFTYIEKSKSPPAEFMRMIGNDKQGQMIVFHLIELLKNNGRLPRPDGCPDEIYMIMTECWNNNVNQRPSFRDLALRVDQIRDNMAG
Chain of UniProt Q6PL18 (whole entry, looked up): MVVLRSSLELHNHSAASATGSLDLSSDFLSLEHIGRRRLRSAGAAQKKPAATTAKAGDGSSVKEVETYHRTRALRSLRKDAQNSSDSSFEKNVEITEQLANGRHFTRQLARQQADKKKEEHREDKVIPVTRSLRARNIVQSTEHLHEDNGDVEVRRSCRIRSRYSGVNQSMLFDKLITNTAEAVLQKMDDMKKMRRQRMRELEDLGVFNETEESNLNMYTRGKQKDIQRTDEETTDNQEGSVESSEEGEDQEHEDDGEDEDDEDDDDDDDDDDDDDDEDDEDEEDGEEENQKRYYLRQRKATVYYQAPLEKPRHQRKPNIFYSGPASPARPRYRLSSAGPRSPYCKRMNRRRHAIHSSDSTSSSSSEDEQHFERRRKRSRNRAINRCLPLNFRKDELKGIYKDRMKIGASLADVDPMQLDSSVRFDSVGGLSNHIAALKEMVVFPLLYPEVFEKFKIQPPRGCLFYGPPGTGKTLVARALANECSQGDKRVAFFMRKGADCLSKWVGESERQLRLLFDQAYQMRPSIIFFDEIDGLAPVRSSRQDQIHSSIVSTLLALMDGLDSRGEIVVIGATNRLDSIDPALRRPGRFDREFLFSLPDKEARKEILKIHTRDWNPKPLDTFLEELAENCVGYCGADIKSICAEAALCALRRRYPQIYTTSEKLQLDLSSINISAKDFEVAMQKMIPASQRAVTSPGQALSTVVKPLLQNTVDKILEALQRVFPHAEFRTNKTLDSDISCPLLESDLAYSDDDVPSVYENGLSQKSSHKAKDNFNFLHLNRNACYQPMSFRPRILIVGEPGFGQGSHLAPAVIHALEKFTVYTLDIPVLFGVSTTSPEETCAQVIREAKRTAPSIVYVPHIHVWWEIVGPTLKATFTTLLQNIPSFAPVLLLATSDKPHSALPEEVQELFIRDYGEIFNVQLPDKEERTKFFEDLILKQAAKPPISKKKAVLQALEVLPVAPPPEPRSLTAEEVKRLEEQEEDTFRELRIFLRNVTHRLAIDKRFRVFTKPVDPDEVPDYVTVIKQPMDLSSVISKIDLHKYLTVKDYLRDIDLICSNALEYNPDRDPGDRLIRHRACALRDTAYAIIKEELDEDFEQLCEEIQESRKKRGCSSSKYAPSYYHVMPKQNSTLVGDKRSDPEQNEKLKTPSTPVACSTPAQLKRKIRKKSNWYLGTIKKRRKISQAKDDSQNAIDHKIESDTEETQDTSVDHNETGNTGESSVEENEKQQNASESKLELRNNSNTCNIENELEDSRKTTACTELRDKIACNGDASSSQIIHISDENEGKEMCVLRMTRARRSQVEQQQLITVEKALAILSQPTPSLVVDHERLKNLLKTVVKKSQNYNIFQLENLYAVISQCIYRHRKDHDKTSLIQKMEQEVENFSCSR
Chain of UniProt Q9UIF8 (whole entry, looked up): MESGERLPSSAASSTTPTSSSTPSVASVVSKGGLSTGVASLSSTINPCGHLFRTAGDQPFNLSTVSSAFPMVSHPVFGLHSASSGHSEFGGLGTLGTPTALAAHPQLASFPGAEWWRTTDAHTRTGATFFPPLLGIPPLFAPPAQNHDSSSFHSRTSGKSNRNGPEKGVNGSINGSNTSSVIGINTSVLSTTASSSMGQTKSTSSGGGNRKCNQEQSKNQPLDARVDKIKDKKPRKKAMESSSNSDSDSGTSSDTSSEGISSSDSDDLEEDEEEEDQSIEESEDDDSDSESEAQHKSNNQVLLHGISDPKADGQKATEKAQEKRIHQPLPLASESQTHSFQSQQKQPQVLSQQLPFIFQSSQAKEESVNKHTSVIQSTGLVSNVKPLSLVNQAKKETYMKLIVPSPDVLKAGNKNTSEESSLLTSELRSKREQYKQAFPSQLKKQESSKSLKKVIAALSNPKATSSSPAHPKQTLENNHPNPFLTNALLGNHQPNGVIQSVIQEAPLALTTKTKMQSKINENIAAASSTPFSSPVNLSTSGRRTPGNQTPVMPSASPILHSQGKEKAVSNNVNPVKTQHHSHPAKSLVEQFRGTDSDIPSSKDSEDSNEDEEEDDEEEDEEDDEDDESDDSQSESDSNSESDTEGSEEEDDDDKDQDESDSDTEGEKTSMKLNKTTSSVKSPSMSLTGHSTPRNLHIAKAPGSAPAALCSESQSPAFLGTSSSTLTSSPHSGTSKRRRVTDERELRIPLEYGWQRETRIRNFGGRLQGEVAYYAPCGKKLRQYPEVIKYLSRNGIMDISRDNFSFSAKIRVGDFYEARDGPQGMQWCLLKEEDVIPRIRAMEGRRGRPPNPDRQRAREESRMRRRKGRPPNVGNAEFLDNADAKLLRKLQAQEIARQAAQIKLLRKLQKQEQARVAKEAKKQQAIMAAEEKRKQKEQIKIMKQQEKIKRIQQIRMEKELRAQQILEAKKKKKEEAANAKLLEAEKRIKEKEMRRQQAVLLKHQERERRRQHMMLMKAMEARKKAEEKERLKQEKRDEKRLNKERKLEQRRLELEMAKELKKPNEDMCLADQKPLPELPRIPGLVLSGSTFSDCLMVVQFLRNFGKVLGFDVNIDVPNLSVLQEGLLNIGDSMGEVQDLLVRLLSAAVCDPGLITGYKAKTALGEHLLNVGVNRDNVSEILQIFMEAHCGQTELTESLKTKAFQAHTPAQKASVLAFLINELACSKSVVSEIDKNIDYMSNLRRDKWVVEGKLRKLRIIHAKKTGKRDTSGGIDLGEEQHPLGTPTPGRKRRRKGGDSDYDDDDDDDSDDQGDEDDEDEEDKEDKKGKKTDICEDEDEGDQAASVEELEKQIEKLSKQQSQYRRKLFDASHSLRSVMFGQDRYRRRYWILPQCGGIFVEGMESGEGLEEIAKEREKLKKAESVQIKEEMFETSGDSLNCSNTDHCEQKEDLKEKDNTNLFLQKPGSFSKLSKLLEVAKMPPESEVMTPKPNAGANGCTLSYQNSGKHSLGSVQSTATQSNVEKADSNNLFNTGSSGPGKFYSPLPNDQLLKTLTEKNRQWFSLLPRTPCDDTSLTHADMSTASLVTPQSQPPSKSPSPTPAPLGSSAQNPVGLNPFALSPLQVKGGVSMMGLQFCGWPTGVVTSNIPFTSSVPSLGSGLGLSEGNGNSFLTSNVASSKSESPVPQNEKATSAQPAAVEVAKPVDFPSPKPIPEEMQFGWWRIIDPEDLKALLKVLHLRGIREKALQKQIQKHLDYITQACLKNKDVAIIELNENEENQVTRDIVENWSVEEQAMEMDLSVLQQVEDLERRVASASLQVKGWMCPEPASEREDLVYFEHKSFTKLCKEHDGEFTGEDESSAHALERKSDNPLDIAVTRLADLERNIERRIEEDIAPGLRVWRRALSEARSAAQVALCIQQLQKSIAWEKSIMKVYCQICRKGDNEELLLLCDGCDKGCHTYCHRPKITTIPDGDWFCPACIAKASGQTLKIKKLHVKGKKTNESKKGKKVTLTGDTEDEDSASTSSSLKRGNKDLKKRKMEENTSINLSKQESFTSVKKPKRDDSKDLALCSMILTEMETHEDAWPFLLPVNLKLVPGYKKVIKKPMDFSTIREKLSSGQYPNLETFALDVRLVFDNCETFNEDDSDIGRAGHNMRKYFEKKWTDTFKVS

Compound	target	observed	technique	tested at	reference	remaining binding [%]
C=CC(=O)N1CCCC(n2c(=O)c3ncccc3n(Cc3ccc(Oc4ccccc4)cc3)c2=O)C1 (stereo not drawn)	Tyrosine-protein kinase ABL1, non-phosphorylated (ABL1, Homo sapiens, UniProt P00519, T315I)	cell-free assay	competition with immobilised ligand	1 µM		65
CC(=O)N1c2ccc(-c3ccc(CNC(=O)c4cn5cc(-c6cnc(N)nc6)nc(N6CCOCC6)c5n4)cc3)cc2CC[C@@H]1C	Bromodomain adjacent to zinc finger domain protein 2B, bromodomain (BAZ2B, Homo sapiens, UniProt Q9UIF8)	binding	competition with immobilised ligand	10 µM		75
COc1cc(Nc2nccc(-c3cnn4nc(OC)ccc34)n2)cc(C(F)(F)F)c1	FLT3 ITD mutant, human		KINOMEscan scanMAX binding	1000 nM	control	100
Cn1cc(-c2ccc3[nH]c4c(c3c2)-c2nc(N)ncc2CCC4)cn1	PIP4K2C	binding	competition with immobilised ligand	1 µM		5.2
CNC1C[S+]2CC[S+]3CC[S+](C1)[Ru-4]321([N]=C=S)[n]2c3ccc(OC)cc3c3c4c(c5cc(F)c[n+]1c5c32)C(=O)NC4=O (stereo not drawn)	Tyrosine-protein kinase ABL1, phosphorylated (ABL1, Homo sapiens, UniProt P00519, T315I)		KinomeScan	0.1 µM	untreated	100
Cn1cc(-c2cc(N3CCCCS3(=O)=O)ccc2N[C@H]2CC[C@H](C)CC2)c2cc[nH]c2c1=O (stereo in doubt)	ATAD2 (Homo sapiens, UniProt Q6PL18)	binding	competition with immobilised ligand	1 µM		100
Cc1cnc2nc1Nc1cccc(c1)COC/C=C/COCc1cc(ccc1OCCN1CCOCC1)N2	JAK2 (Homo sapiens, UniProt O60674)		kinase binding panel	concentration not given		8
Cc1cc(NC(=O)[C@H](O)c2cc(F)cc(F)c2)ccc1-c1cnc(N)c(C(=O)NC(C)C)c1	MAP3K19 (Homo sapiens, UniProt Q56UN5)	binding	competition with immobilised ligand	0.1 µM		83
CC(C)(C#Cc1ccc2[nH]c3c(c2c1)-c1nc(N)ncc1CCC3)CO	PIP4K2C	binding	competition with immobilised ligand	1 µM		2.2

For quick reference, copied from above:
Compound	target	observed	technique	tested at	reference	remaining binding [%]
CC(C)(C#Cc1ccc2[nH]c3c(c2c1)-c1nc(N)ncc1CCC3)CO	PIP4K2C	binding	competition with immobilised ligand	1 µM		2.2
